Measured values gathered from unrelated publications.
Target: Mitogen-activated protein kinase 10 (MAPK10, Homo sapiens, UniProt P53779)
Chain of UniProt P53779 (whole entry, looked up): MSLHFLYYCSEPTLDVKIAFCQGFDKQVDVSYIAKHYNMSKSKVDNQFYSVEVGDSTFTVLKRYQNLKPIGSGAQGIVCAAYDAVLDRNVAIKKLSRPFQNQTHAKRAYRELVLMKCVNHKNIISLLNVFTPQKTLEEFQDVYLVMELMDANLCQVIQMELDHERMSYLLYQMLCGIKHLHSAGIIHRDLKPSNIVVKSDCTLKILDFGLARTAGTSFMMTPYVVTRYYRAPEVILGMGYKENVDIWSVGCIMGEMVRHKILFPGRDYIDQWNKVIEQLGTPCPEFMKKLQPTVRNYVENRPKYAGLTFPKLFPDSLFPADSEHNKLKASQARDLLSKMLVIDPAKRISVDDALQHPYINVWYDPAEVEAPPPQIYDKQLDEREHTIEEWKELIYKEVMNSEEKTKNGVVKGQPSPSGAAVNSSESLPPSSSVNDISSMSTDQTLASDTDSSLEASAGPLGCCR

Compound	assay	setting	scale	measurement	result
C1=C/COCc2cc(ccc2OCCN2CCCC2)Nc2nccc(n2)-c2cccc(c2)COC/1	–	concentration not given, kinase construct JNK3	reference: control	binding	33%
C=CC(=O)N1CCC(COCC(=O)N2CCN(c3nc(-c4cnc(N)nc4C(F)F)nc(N4CCOC[C@@H]4C)n3)CC2)CC1	KINOMEscan	1 µM	reference: DMSO control	remaining binding	80%
O=C(NC1CCC1)c1ccc2nc(-c3cccc(NS(=O)(=O)NCCN4CCCCC4)c3)cn2c1	enzyme activity	10 µM	–	remaining activity	93%
COc1cc(F)ccc1-c1ncnc(Nc2cccc(C[S@](C)(=N)=O)c2)n1	kinase activity	10 µM, with: 10 µM ATP	–	remaining activity	58%
O=C1NC(=O)/C(=C/c2ccc(-c3ccc(F)cc3O)o2)S1	enzyme activity	10 µM	–	remaining activity	90%
CCN(CC)c1ccc(C2=NNC(=O)CC2C)cc1[N+](=O)[O-] (stereo not shown)	enzyme activity, inhibitor	10 µM	reference: vehicle	remaining activity	91%
C[C@@H](c1ccc(-n2cnc3c(N)ncnc32)cc1)N1CCc2nn(C)c(Cc3ccccc3)c2C1=O	KINOMEscan	0.1 µM	reference: DMSO control	remaining binding	60%
Cc1cc(Nc2cc(N3CCN(C)CC3)nc(Sc3ccc(NC(=O)C4CC4)cc3)n2)[nH]n1	kinase activity, KinaseProfiler	0.03 µM, species human	reference: control	remaining activity	105%
CCCOc1ccc(OC)c(F)c1C(=O)c1ccc(C(=O)N[C@@H]2CNC[C@H]2NC(=O)c2ccc3[nH]ncc3c2)cc1	enzyme activity	10 µM	–	remaining activity	72%
C=CC(=O)N1CCC(C(=O)NCC(=O)N2CCN(c3nc(-c4cnc(N)nc4C(F)F)nc(N4CCOCC4)n3)CC2)CC1	KINOMEscan	1 µM	–	remaining binding	100%
